{"data": "Assay results from different studies", "note": "Each numbered part is a random draw from the data of one study; scales do not carry over between parts. Positions count from the first letter of the parent shown."}
{"data": "Study 1", "target": "CRIPT, C-terminal peptide", "method": "DHFR complementation, deep sequencing", "matrix": "yeast", "notes": "single substitutions, model-inferred values", "reference": "wild type", "reading": "higher = weaker binding", "parent": "ERBIN, PDZ domain 1 (human); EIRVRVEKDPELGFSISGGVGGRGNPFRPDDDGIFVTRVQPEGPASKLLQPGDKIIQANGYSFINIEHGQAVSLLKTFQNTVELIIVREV; partner TKNYKQTSV"}
{"Change": "L75T", "binding free energy change [kcal/mol]": 1.37}
{"Change": "G24H", "binding free energy change [kcal/mol]": 0.689}
{"Change": "V87P", "binding free energy change [kcal/mol]": 1.35}
{"Change": "H68Y", "binding free energy change [kcal/mol]": 1.34}
{"Change": "D31S", "binding free energy change [kcal/mol]": 0.316}
{"Change": "P10Q", "binding free energy change [kcal/mol]": -0.654}
{"data": "Study 2", "target": "Interferon regulatory factor 5, full length, phosphomimetic (IRF5, Homo sapiens, UniProt Q13568-2, residues 1-514, S451D/S453D/S456D/S462D)", "method": "protein-binding microarray", "form": "double-stranded DNA, one strand shown", "matrix": "in vitro", "tested at": "940 nM top", "notes": "60-bp whole probe", "with": "salmon DNA 0.4 mg/ml", "reference": "random background probes", "reading": "higher = stronger binding", "constant ends, left off below": "GCCTAGCAC … GTCTTGATTCGCTTGACGCTGCTG"}
{"Oligonucleotide": "TTAGAACTGGGGTATCGATTTGTGCTA", "fitted relative affinity [z-score]": 2.87}
{"Oligonucleotide": "GACGGGTCCGGTTTCGGGACGTGCTAG", "fitted relative affinity [z-score]": 3.26}
{"Oligonucleotide": "TCATTGGTTGAACATGAACTGTGCTAG", "fitted relative affinity [z-score]": 0.0418}
{"Oligonucleotide": "CTGCATTTTTTTTTTCTACTGTGCTAG", "fitted relative affinity [z-score]": 1.31}
{"Oligonucleotide": "TTAGGTCTCCGTATCGGTTAGTGCTAG", "fitted relative affinity [z-score]": 2.05}
{"Oligonucleotide": "AGGTTTCTATATTTGCTTCAGTGCTAG", "fitted relative affinity [z-score]": 5.67}
{"Oligonucleotide": "TTAGGATTGGGGTATCGGTTAGTGCTA", "fitted relative affinity [z-score]": 2.79}
{"Oligonucleotide": "TTAGGTATCCTATTCCTTTAGTGCTAG", "fitted relative affinity [z-score]": -0.0851}
{"Oligonucleotide": "CACGAACTGGGGTATCGAGACGTGCTA", "fitted relative affinity [z-score]": 0.923}
{"Oligonucleotide": "TCAGTTTCGTATCTTCATTGTGTGCTA", "fitted relative affinity [z-score]": 8.82}
{"data": "Study 3", "target": "CCNF, cyclin fold, Cln2 fusion (human)", "method": "yeast growth competition, sequencing", "matrix": "yeast", "notes": "strong parent motif", "reference": "not given", "reading": "higher = stronger binding", "parent": "MICAL3 docking peptide (human); LQLRRQLSFSEDS"}
{"Change": "LQLRRQNSFSEDS [L7N]", "normalised enrichment score": -0.27}
{"Change": "LQLRAQLSFSEDS [R5A]", "normalised enrichment score": 0.312}
{"Change": "LQLRPQLSFSEDS [R5P]", "normalised enrichment score": -0.0672}
{"Change": "LQLRRQLSFSEIS [D12I]", "normalised enrichment score": 5.44}
{"Change": "LQIRRQLSFSEDS [L3I]", "normalised enrichment score": 6.53}
{"Change": "LQLRRCLSFSEDS [Q6C]", "normalised enrichment score": 5.43}
{"Change": "LQYRRQLSFSEDS [L3Y]", "normalised enrichment score": 4.76}
{"data": "Mixed results"}
{"Molecule": "PhoQ, residues 284 288 289 292 302 303 WVSSAF", "target": "PhoP, residues 12 14 15 18 19 LHTVM (Escherichia coli, UniProt P23836)", "assay": "Sort-seq, refers to: YFP reporter", "system": "E. coli", "conditions": "PhoQ-PhoP variant library, with: 10 µM Mg2+", "how to read": "reference: high Mg2+ state, higher = stronger signaling", "endpoint": "fold induction", "result": 5.6}
{"note": "Excerpt of the above (study 2):"}
{"Oligonucleotide": "TCATTGGTTGAACATGAACTGTGCTAG", "fitted relative affinity [z-score]": 0.0418}
{"Oligonucleotide": "TTAGGTATCCTATTCCTTTAGTGCTAG", "fitted relative affinity [z-score]": -0.0851}
{"Oligonucleotide": "TTAGAACTGGGGTATCGATTTGTGCTA", "fitted relative affinity [z-score]": 2.87}
